{"data": "Experimental data collected from several papers", "note": "Each numbered part is a random draw from the data of one study; scales do not carry over between parts. Changes are numbered by the printed parent chain.", "sequence of UniProt P11802 (whole entry, looked up)": "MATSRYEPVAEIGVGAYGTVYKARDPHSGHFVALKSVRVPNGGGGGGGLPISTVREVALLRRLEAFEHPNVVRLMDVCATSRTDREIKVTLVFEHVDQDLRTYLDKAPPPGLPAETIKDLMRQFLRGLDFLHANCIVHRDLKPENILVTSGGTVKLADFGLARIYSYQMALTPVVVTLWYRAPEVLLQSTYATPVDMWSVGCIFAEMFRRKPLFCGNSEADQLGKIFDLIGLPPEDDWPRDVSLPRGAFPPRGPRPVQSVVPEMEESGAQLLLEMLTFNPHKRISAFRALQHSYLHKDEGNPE", "sequence of UniProt P23458 (whole entry, looked up)": "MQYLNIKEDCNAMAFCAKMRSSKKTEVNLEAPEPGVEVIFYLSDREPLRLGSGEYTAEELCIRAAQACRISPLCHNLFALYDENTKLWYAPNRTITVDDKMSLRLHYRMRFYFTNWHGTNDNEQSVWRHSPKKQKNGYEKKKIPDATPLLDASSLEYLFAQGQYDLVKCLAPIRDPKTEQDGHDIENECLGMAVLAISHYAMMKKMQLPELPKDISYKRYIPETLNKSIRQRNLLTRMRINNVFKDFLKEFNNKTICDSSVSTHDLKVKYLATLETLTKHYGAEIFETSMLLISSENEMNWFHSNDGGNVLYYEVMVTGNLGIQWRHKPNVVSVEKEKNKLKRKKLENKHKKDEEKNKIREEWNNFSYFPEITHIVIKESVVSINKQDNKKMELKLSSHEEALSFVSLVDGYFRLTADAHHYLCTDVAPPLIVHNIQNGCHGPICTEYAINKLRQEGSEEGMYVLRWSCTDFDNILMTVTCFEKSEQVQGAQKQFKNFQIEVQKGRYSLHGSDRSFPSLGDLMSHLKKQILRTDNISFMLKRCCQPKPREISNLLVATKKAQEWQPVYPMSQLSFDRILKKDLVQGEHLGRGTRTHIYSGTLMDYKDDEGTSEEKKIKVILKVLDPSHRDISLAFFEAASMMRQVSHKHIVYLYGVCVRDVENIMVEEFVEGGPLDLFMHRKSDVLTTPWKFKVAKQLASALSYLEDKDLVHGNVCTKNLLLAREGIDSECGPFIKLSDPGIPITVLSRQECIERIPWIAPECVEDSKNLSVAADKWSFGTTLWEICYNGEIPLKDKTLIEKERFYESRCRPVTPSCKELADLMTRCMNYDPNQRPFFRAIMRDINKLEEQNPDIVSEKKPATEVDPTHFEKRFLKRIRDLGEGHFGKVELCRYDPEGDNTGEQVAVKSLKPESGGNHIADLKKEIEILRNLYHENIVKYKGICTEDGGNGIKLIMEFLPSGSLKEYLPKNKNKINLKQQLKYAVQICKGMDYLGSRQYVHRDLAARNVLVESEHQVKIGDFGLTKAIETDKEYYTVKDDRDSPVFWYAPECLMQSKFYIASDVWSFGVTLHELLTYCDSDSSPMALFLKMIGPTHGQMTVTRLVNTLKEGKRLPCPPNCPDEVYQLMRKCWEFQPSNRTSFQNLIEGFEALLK"}
{"data": "Series 1", "target": "ALK tyrosine kinase receptor (ALK, Homo sapiens, UniProt Q9UM73)", "observed": "enzyme activity", "mode": "inhibitor", "concentration": "0.5 µM", "relative to": "control", "sequence of UniProt Q9UM73 (whole entry, looked up)": "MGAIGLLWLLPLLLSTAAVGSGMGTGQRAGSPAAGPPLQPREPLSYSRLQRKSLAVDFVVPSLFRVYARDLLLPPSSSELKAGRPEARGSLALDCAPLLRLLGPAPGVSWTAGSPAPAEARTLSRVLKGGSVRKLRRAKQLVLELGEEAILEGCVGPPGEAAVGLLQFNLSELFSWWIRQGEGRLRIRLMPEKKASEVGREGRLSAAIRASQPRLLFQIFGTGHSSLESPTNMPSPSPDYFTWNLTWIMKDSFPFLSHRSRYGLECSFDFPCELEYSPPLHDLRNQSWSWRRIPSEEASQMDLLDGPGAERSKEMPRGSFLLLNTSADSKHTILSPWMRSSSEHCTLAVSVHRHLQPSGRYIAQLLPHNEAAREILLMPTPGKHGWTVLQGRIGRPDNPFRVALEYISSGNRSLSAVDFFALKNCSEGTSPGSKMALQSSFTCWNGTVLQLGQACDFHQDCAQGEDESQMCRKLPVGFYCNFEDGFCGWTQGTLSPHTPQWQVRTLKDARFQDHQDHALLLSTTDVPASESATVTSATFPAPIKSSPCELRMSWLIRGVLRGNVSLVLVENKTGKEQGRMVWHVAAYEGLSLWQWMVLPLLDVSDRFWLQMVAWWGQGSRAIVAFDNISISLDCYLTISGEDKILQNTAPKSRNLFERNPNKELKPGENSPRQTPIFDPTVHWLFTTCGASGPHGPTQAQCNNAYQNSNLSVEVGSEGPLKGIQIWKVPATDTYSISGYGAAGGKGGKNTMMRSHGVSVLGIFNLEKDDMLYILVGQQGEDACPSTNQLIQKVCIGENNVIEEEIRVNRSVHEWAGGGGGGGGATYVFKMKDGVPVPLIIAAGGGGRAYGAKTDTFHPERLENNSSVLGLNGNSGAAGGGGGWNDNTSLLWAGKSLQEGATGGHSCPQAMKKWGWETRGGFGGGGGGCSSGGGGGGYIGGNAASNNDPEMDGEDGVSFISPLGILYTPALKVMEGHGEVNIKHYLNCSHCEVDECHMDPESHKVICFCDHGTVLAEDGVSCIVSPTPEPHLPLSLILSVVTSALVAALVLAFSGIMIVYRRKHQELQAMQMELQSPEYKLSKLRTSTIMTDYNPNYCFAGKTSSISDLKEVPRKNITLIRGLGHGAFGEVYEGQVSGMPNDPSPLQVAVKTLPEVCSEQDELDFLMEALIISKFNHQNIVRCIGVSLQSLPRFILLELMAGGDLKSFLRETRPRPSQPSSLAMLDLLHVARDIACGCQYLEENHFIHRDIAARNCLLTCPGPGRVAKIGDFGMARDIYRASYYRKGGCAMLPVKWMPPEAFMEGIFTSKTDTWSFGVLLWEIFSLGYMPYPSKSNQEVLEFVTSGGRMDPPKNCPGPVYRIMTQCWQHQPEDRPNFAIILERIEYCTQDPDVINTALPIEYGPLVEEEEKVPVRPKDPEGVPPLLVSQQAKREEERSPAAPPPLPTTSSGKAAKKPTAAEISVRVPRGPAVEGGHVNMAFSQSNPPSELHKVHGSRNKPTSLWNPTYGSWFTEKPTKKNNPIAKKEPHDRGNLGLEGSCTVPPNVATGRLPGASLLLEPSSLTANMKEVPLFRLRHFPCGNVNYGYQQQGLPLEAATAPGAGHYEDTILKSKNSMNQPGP"}
{"Structure (SMILES)": "COc1cc2ncnc(Nc3ccc(O)c(Br)c3)c2cc1OC", "remaining activity": "12.5%"}
{"Structure (SMILES)": "Cc1cc2ncc(-c3ccccc3)nc2cc1C", "remaining activity": "98%"}
{"Structure (SMILES)": "COc1cc2c(cc1OC)-c1[nH]nc(Nc3cccc(F)c3)c1C2", "remaining activity": "103%"}
{"Structure (SMILES)": "CN([C@@H](Cc1ccc(OS(=O)(=O)c2cccc3cnccc23)cc1)C(=O)N1CCN(c2ccccc2)CC1)S(=O)(=O)c1cccc2cnccc12", "remaining activity": "96.5%"}
{"Structure (SMILES)": "CCN(CC)C(=O)c1ccc(Nc2nc(OCC3CCCCC3)c3[nH]cnc3n2)cc1", "remaining activity": "74.9%"}
{"Structure (SMILES)": "Nc1cccc(-c2cc3c(Oc4cccc(O)c4)ncnc3[nH]2)c1", "remaining activity": "80.9%"}
{"Structure (SMILES)": "CCN(CC)CCNC(=O)c1c(C)[nH]c(/C=C2\\C(=O)Nc3ccc(Cl)cc32)c1C", "remaining activity": "3.45%"}
{"Structure (SMILES)": "COc1cc2ncnc(Nc3cccc(Cl)c3)c2cc1OC", "remaining activity": "91.5%"}
{"Structure (SMILES)": "O=C(Nc1cccc(Nc2nccc(Nc3cccc(C(F)(F)F)c3)n2)c1)C1CC1", "remaining activity": "99.8%"}
{"Structure (SMILES)": "Cc1cn(-c2cc(NC(=O)c3ccc(C)c(Nc4nccc(-c5cccnc5)n4)c3)cc(C(F)(F)F)c2)cn1", "remaining activity": "103%"}
{"Structure (SMILES)": "N#Cc1c(NC(=O)c2cccc3ccccc23)sc2c1CCCC2", "remaining activity": "96.4%"}
{"Structure (SMILES)": "O=C1C(Cl)=C(N2C(=O)CCC2=O)C(=O)c2ccccc21", "remaining activity": "88.5%"}
{"data": "Series 2", "Compound": "O=S(=O)(NC1CCC(c2cc(F)ccc2F)(S(=O)(=O)c2ccc(Cl)cc2)CC1)C(F)(F)F (stereo not shown)", "observed": "cell-free assay", "method": "competition with immobilised ligand", "concentration": "1 µM"}
{"target": "Tyrosine-protein kinase JAK1, JH1 (JAK1, Homo sapiens, UniProt P23458)", "remaining binding [%]": 70}
{"target": "Cyclin-dependent kinase 4, with cyclin D1 (CDK4, Homo sapiens, UniProt P11802)", "remaining binding [%]": 100}
{"target": "MAPK9 (Homo sapiens, UniProt P45984)", "remaining binding [%]": 73}
{"data": "Series 3", "target": "CCNE2, cyclin fold, Cln2 fusion (human)", "method": "yeast growth competition, sequencing", "medium": "yeast", "setting": "strong parent motif", "relative to": "not given", "direction": "higher = stronger binding", "parent": "PKN2 docking peptide (human); VSAVRKLDFSDTM; partner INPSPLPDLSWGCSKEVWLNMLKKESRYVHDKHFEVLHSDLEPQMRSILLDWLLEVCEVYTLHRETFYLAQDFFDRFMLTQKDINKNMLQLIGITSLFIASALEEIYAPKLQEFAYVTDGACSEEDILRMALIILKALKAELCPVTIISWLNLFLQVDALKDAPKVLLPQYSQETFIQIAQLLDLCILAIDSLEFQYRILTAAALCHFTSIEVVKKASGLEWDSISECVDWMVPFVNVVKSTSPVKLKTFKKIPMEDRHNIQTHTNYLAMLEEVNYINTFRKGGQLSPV"}
{"Substitution": "VSAVRKCDFSDTM [L7C]", "normalised enrichment score": 0.0138}
{"Substitution": "VSAVRKLDFPDTM [S10P]", "normalised enrichment score": 3.69}
{"Substitution": "VSAVRKLDFWDTM [S10W]", "normalised enrichment score": 2.92}
{"Substitution": "VSAVRILDFSDTM [K6I]", "normalised enrichment score": 3.19}
{"Substitution": "VSAVRKLDFSCTM [D11C]", "normalised enrichment score": 5.1}
{"Substitution": "VSAVRKLDGSDTM [F9G]", "normalised enrichment score": 0.431}
{"Substitution": "VSAVRKLRFSDTM [D8R]", "normalised enrichment score": 2.45}
{"Substitution": "VSAVRKLDFSYTM [D11Y]", "normalised enrichment score": 5.04}
{"data": "Series 4", "target": "CREBRF, bZIP domain (human)", "method": "DHFR protein complementation", "medium": "yeast", "setting": "single substitutions, most at no-binding floor", "relative to": "wild-type JUN-FOS pair", "direction": "higher = stronger binding", "parent": "JUN, bZIP domain (human); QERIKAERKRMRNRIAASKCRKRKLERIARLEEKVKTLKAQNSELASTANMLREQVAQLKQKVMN; partner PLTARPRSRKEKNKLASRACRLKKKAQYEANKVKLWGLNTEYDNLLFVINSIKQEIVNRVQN"}
{"Substitution": "A29C", "binding fitness": "-1.4 natural log"}
{"Substitution": "A46Q", "binding fitness": "-1.49 natural log"}
{"Substitution": "L45Q", "binding fitness": "-1.51 natural log"}
{"Substitution": "S43N", "binding fitness": "-1.59 natural log"}
{"Substitution": "A46G", "binding fitness": "-1.46 natural log"}
{"Substitution": "K39L", "binding fitness": "-1.5 natural log"}
{"Substitution": "E33M", "binding fitness": "-1.47 natural log"}
{"Substitution": "T37A", "binding fitness": "-1.46 natural log"}
